Experimental data gathered from unrelated publications.
“And” joins repeats or separate records; there may be more than shown. Numbers after ± are the reported error.

C[C@@H]1CCO[C@H]2Cn3cc(C(=O)NCc4ccc(F)cc4F)c(=O)c(O)c3C(=O)N12
AUC(0-24) (population PK, post-hoc; infants aged ≥1 months, 3 to <6 kg, plasma; oral, 5 mg dispersible tablet, steady state, geometric mean): 45900 ng·h/mL

O=C(O)CCN1C(=O)CSC1=S
permeation rate (Bama miniature pig, excised skin; 10 mM, 1 h, 30% ethanol in saline donor): 0.044 ± 0.014 µmol/cm²/h

COc1ccc2[nH]c([S@+]([O-])Cc3ncc(C)c(OC)c3C)nc2c1
AUC fold change (human male, dried plasma spots; dose not given, mean, added: fluvoxamine and voriconazole; baseline: inhibition over control): 8.9 fold

N#Cc1ccc2c(c1)[C@H]1CCCN(C(=O)c3ccc4[nH]cnc4c3)[C@H]1C2
total testosterone level (human males; 20 mg, day 15): 11 nmol/L

N=C(N)NCCNC(=O)C1(Nc2ccccc2)CCN(Cc2ccccc2)CC1
volume of distribution (Sprague-Dawley rats, both sexes, plasma; intravenous, 2.5 mg/kg, mean of both sexes): 1.2 ± 0.6 L

NC(N)=O
log2 fold change (binding, MIDAS equilibrium dialysis LC-MS; A2AR-BRIL thermostabilized; concentration not given; baseline: no-protein control): -0.0838

O=C(O)c1cc(O)c(O)c(O)c1
apparent oral clearance (rat, plasma; oral, 500 mg/kg extract): 207 ± 12.3 L/h

CCN1/C(=C/C(C)=O)Sc2ccc(F)cc21
QRS duration (cynomolgus monkey; oral, 30 mg/kg, 2 h post-dose): 35 ± 2 ms

CCc1c(-c2ccccc2)c(-c2ccccc2)nn1-c1ccccc1-c1cccc(OCC(=O)O)c1
concentration (male Sprague-Dawley rat, testis homogenate; oral, 10 mg/kg, 1 h): 36.7 ng/mL

CNCCOC12CC3(C)CC(C)(CC(Cn4ncc(-c5ccc(N6CCc7cccc(C(=O)Nc8nc9ccccc9s8)c7C6)nc5C(=O)O)c4C)(C3)C1)C2
mean arterial pressure change (beagle dog, male, anaesthetised; intravenous bolus, 0.03 mg/kg, 180 min; baseline: baseline): -22%

CC(C)c1nc(N(C)S(C)(=O)=O)nc(-c2ccc(F)cc2)c1/C=C/[C@@H](O)C[C@@H](O)CC(=O)O
central volume of distribution (population pharmacokinetic model; people living with HIV; oral, dose not given): 153 L

CCc1cc(C(=O)NC)c2nccc(N3CCc4c(cc(Cn5ccnc5)cc4-c4cn(C)nc4C(F)(F)F)C3=O)c2c1
reticulocyte count change (Sprague Dawley rats; oral, 50 mg/kg once daily, 7 days; baseline: vehicle): -7.98%

CC(C)(C(=O)N1CCOc2c(C#N)cncc2C1)C(F)F
subjects with TEAE (item: vessel puncture site hypoaesthesia; healthy humans, both sexes; oral, 20 mg single dose): 0%

Cc1nc(-c2ccc(OCC(C)C)c(C#N)c2)sc1C(=O)O
haematological reaction incidence (item: neutrophils, haemoglobin; healthy Chinese subjects; oral, 40 mg, fed): 5%

C=CCn1ccc(=O)c(O)c1C
partition coefficient (shake-flask, item: iron(III) complex; 1-octanol/Tris buffer; pH 7.4, ligand:iron 10:1): 0.3 ± 0.05

Cc1c(-c2ccc(N3CCc4cccc(C(=O)Nc5nc6ccccc6s5)c4C3)nc2C(=O)O)cnn1CC12CC3(C)CC(C)(C1)CC(OCCNCC[C@H](O)CO)(C3)C2
heart rate change (beagle dog, male, anaesthetised; intravenous infusion, 0.3 mg/kg/min, 30 (unit not given); baseline: vehicle): -5%

CO[C@H]1C[C@@H]2CC[C@@H](C)[C@@](O)(O2)C(=O)C(=O)N2CCCC[C@H]2C(=O)O[C@H]([C@H](C)C[C@@H]2CC[C@@H](O)[C@H](OC)C2)CC(=O)[C@H](C)/C=C(\C)[C@@H](O)[C@@H](OC)C(=O)[C@H](C)C[C@H](C)/C=C/C=C/C=C/1C
rectal temperature (healthy adult horses; intravenous, 0.06 mg/kg, 24 h): 37 ± 0.3 °C

OC[C@H]1O[C@@H](c2ccc(F)c(Cc3cc4ccccc4s3)c2)[C@H](O)[C@@H](O)[C@@H]1O
hypoglycaemia adverse events (Japanese type 1 diabetes patients; oral, 100 mg/day; baseline: patients): 6%

O=C1c2ccncc2C(=O)c2c1[nH]c1ccccc21
volume of distribution (Sprague-Dawley rat female, plasma; intravenous, 5 mg/kg): 14.3 ± 8.4 L

COc1ccc2c(c1)CN(C(=O)CCN1CCC(Cc3ccccc3)CC1)CC[S@@+]2[O-]
unbound plasma concentration (beagle dog, male, plasma; intravenous, 8 mg/kg, day 14, 14-day toxicity study): 8.86 µM

CC(=O)O[C@H]1C(=O)[C@@]2(C)[C@H]([C@H](OC(=O)c3ccccc3)[C@]3(O)C[C@H](OC(=O)[C@H](O)[C@@H](NC(=O)c4ccccc4)c4ccccc4)C(C)=C1C3(C)C)[C@]1(OC(C)=O)CO[C@@H]1C[C@@H]2O
adverse events, all grades (item: peripheral neuropathy; patients with advanced solid tumours; intravenous, dose not given, phase Ib, related to compound): 15%

Nc1ncnc2c1ncn2[C@H]1C[C@@H]2OP(=O)(O)OC[C@H]3O[C@@H](n4cnc5c(N)ncnc54)C[C@@H]3OP(=O)(O)OC[C@H]2O1
neutrophil percentage (non-tumor-bearing mice, blood; intravenous, 1 mg/kg, toxicity study): 11.4 ± 3.46%

CNC(=O)c1ccc(-c2cnc3ncc(Cc4ccc5ncccc5c4)n3n2)cc1F
patients with adverse event (item: Dyspnea, all grades; gastric cancer patients; oral, 600 mg twice daily, expansion cohort, any causality): 11%

Nc1ncn([C@H]2C[C@H](O)[C@@H](CO)O2)c(=O)n1
mean deviation from nominal (mouse plasma; 80 ng/mL, 3 months, -80 °C, long-term stability, with THU): 6.61%

COc1cc([C@H]2OC[C@H]3[C@@H]2CO[C@@H]3c2ccc(O[C@@H]3O[C@H](CO)[C@@H](O)[C@H](O)[C@H]3O)c(OC)c2)ccc1O[C@@H]1O[C@H](CO)[C@@H](O)[C@H](O)[C@H]1O
accuracy (post-procedure stability; rat plasma; 1000 ng/mL, 3 h, room temperature): 96.5%

CCC(C)C(O)C(=O)O (stereo not drawn)
log2 fold change (binding, MIDAS equilibrium dialysis LC-MS; A2AR-BRIL thermostabilized; concentration not given; baseline: no-protein control): -0.559

COc1cccc(OC)c1-c1cc(C(=O)NC2(C(=O)O)C3CC4CC(C3)CC2C4)nn1-c1ccc(C(=O)N(C)CCCN(C)CCCN(C)C(=O)CN2CCN(CC(=O)[O-])CCN(CC(=O)[O-])CCN(CC(=O)[O-])CC2)cc1C(C)C.[177Lu+3] (stereo not drawn)
tumour-to-heart ratio (mouse, HT-29 xenograft; 168 h post injection, biodistribution; baseline: tumour over heart uptake): 19.2

C=CC(=O)Nc1cc(Nc2nccc(-c3cn(C)c4ccccc34)n2)c(OC)cc1N(C)CCN(C)C
recovery (storage stability; human dried blood spots; 24 h, on ice, high QC level): 78%

CN1CC(=O)N2[C@H](c3ccc4c(c3)OCO4)c3[nH]c4ccccc4c3C[C@@H]2C1=O
accuracy (human plasma; 1.50 ng/mL, 74 days, long-term storage -20 °C): 97.7%

COc1cc(Nc2ncc3c(n2)-c2ccc(Cl)cc2C(c2c(F)cccc2OC)=NC3)ccc1C(=O)O
patients with dry skin (cancer patients; oral, dose not given, all grades any attribution, added: pembrolizumab): 4%

CN(C(=O)n1cnc(-c2cccnc2)c1)C1CCCCC1
concentration (Wistar rat, medulla oblongata; oral, 10 mg/kg/day of BIA 10-2474, 72 h, repeated 5 days): 7.2 ± 0.1 ng/g

C[C@H]1O[C@@H](O[C@H]2[C@@H](O)C[C@H](O[C@H]3[C@@H](O)C[C@H](O[C@H]4CC[C@@]5(C)[C@H](CC[C@@H]6[C@@H]5C[C@@H](O)[C@]5(C)[C@@H](C7=CC(=O)OC7)CC[C@]65O)C4)O[C@@H]3C)O[C@@H]2C)C[C@H](O)[C@@H]1O
subjects with adverse event (item: respiratory, thoracic, mediastinal disorders; healthy men; oral, dose not given, 8 days, treatment-emergent, crossover trial): 0%

OCC1=C[C@@H](O)[C@@H]2C=CO[C@@H](O[C@@H]3O[C@H](CO)[C@@H](O)[C@H](O)[C@H]3O)[C@H]12
accuracy (rat plasma; 200 ng/mL, 2 weeks, -70 °C, post-preparative stability): 95.8%

[18F]c1ccc(-c2ccc3c(c2)[nH]c2ccncc23)cn1
SUV (ex vivo biodistribution; APP/PS1 mouse, AD model, blood; intravenous, 30 min): 0.252 ± 0.08

CCCS(=O)(=O)Nc1ccc(F)c(C(=O)c2c[nH]c3ncc(-c4ccc(Cl)cc4)cc23)c1F
Km of saturable absorption (one-compartment model; tumour-bearing xenograft mouse, plasma; oral): 19900 µg/kg

O=C(Nc1nc2cccc(-c3ccc(CN4CCS(=O)(=O)CC4)cc3)n2n1)C1CC1
patients with TEAE (item: animal bite; rheumatoid arthritis patients; oral, 100 mg twice daily, 4 weeks): 0%

Cc1nc2cccc(OCC(C)(C)C(=O)NC(C)C)c2c(N)c1C(=O)O
micronucleated PCE per 14000 PCE (male Swiss albino CD-1 mouse, bone marrow; oral, 500 mg/kg, 24 h): 5

Cc1ccc(C(=O)N(CCCN)C(c2nc3snc(C)c3c(=O)n2Cc2ccccc2)C(C)C)cc1 (stereo not drawn)
patients with adverse event (stomatitis grade ≥3 (CTCAE); human patients; intravenous, 10 mg/day): 0%

O=C(O)CCC(=O)O.[2H]C([2H])([2H])Oc1cc(C)c2[nH]ccc2c1CN1CC[C@@H](C2CC2)C[C@H]1c1ccc(C(=O)O)cc1
subjects with elevated AST TEAE (multiple ascending dose; healthy Chinese subjects; 300 mg once daily): 0%

Cc1cc(-c2nccc3c2ccn3CC(=O)Nc2ccc(-c3cnccn3)cn2)ccn1
subjects with any IMP-related TEAE (human; MAD part, 15 mg once daily): 22.2%

C=CC(=O)NC1CCN(c2ncc3ncnc(Nc4ccc(Oc5ccc6c(c5)ncn6C)c(C)c4)c3n2)CC1
blood-to-plasma ratio (item: total radioactivity; healthy male human, whole blood and plasma; oral, 60 mg, 48 h, geometric mean): 1.54

COc1nnc2ccc(N3CCC(c4ccc(OCCN5CCN(C)C(=O)[C@H]5C)cc4)CC3)nn12
AUC(0-t) (patients, plasma; oral, 30 mg once daily, multiple dose, monotherapy): 0.651 µM·h

C[C@@H]1CN(CC(=O)N2CC(C)(C)c3nc(CO)c(Cc4ccc(F)cc4)cc32)[C@@H](CN2CCOC[C@H]2C)CN1
Tmax (cynomolgus monkey, male; oral, 5 mg/kg, median): 30 min

C=CC(=O)Nc1cc(Nc2ncc(C(=O)OC(C)C)c(-c3cn(C)c4ccccc34)n2)c(OC)cc1N(C)CCN(C)C
amount excreted in urine (healthy human, urine; oral, 160 mg single dose, 0-48 h, arithmetic mean): 2.31 mg

CC(C)[C@H](C(=O)Nc1ccc(C(=O)NO)cc1)c1ccccc1
accuracy (whole blood; 1000 ng/mL, 1 h, 4 °C, stability on ice): 112%

Cn1cc([C@H]2C[C@H]3CSC(N)=N[C@@]3(c3ccc(F)cc3F)CO2)cn1
CSF concentration (mouse; subcutaneous, 3 mg/kg, 6 h): not detected

C[Si](C)(C)O[Si](C)(C)O[Si](C)(C)O[Si](C)(C)C
whole-body biotransformation rate constant (IVIVE from S9; rainbow trout (Oncorhynchus mykiss)): 0.015 day⁻¹ and 0.017 day⁻¹ and 0.013 day⁻¹

NC1(C(=O)N[C@@H](CCO)c2ccc(Cl)cc2)CCN(c2nc[nH]c3nccc2-3)CC1
weight decreased incidence (human mCRPC patients; oral, twice daily, 4/7 days, grade 3/4, treatment-related, added: enzalutamide 160 mg daily): 0%

Cc1ccc([C@@H]2O[C@H](CO)[C@@H](O)[C@H](O)[C@H]2O)cc1Cc1ccc(-c2ccc(F)cc2)s1
urinary magnesium excretion change (Japanese type 2 diabetes patients; 100 mg, day 4, 24 h urine collection; baseline: baseline): 13.2 mg

CCC(=O)N(CCC(c1ccc2c(c1)OCO2)c1ccccc1OC)Cc1ccccc1 (stereo not drawn)
GLOB (female athymic nude mouse, blood; i.p., 60 mg/kg twice daily, 14 days, group mean): 1.73 g/dL

c1cc2ccc3ccc4ccc5cccc6c(c1)c2c3c4c56
literature range factor (PDMS-water partitioning; PAH compilation; baseline: maximum over minimum K): 4

CCn1cc(C(=O)N2CCOCC2)c(=O)c2cc(NC3Cc4ccccc4C3)cnc21
half-life (human, fed; oral suspension, 300 mg/day twice daily, day 1, arithmetic mean): 3.43 h

Cn1cc(Nc2nccc(-c3ccc4c(c3)CN(C3COC3)CC[C@H]4NC(=O)c3cn(C(C)(C)C)nn3)n2)cn1
granulocyte count change (human, whole blood; 300 mg twice daily, day 7; baseline: pre-dose baseline): 16.9%

O=C(O)CN1CCCN2CCN(Cc3ccccc3)CCCN(CC1)Cc1cccc(n1)C2
copper(II) complex dissociation half-life (5 M HCl; 90 °C): 1.5 h

CNC(=O)c1cc(Oc2ccc(NC(=O)Nc3cc(C(C)(C)C)nn3-c3ccc4ncccc4c3)c(F)c2)ccn1
patients with any AE of special interest (item: worst grade 3; human; oral, dose not given, cycles 1 and 2, Medium Cmax subgroup): 27%

COc1cc2c3c(n(CCCN4CCOCC4)c(=O)c2cc1OC)-c1cc2c(cc1C3=O)OCO2
volume of distribution (Fischer 344 rats, male; intravenous bolus, 24 mg/m^2): 287 L/m²

CCO[C@H]1CCN(Cc2c(OC)cc(C)c3[nH]ccc23)[C@H](c2ccc(C(=O)O)cc2)C1
incidence alkaline phosphatase increase (PNH patients, active haemolysis; oral, 100 mg, treatment): 0%

A few entries again:
Cc1c(-c2ccc(N3CCc4cccc(C(=O)Nc5nc6ccccc6s5)c4C3)nc2C(=O)O)cnn1CC12CC3(C)CC(C)(C1)CC(OCCNCC[C@H](O)CO)(C3)C2
heart rate change (beagle dog, male, anaesthetised; intravenous infusion, 0.3 mg/kg/min, 30 (unit not given); baseline: vehicle): -5%

Cc1ccc(C(=O)N(CCCN)C(c2nc3snc(C)c3c(=O)n2Cc2ccccc2)C(C)C)cc1 (stereo not drawn)
patients with adverse event (stomatitis grade ≥3 (CTCAE); human patients; intravenous, 10 mg/day): 0%

C=CC(=O)NC1CCN(c2ncc3ncnc(Nc4ccc(Oc5ccc6c(c5)ncn6C)c(C)c4)c3n2)CC1
blood-to-plasma ratio (item: total radioactivity; healthy male human, whole blood and plasma; oral, 60 mg, 48 h, geometric mean): 1.54

C=CC(=O)Nc1cc(Nc2ncc(C(=O)OC(C)C)c(-c3cn(C)c4ccccc34)n2)c(OC)cc1N(C)CCN(C)C
amount excreted in urine (healthy human, urine; oral, 160 mg single dose, 0-48 h, arithmetic mean): 2.31 mg

C[Si](C)(C)O[Si](C)(C)O[Si](C)(C)O[Si](C)(C)C
whole-body biotransformation rate constant (IVIVE from S9; rainbow trout (Oncorhynchus mykiss)): 0.015 day⁻¹ and 0.017 day⁻¹ and 0.013 day⁻¹

O=C(O)CCN1C(=O)CSC1=S
permeation rate (Bama miniature pig, excised skin; 10 mM, 1 h, 30% ethanol in saline donor): 0.044 ± 0.014 µmol/cm²/h

CN(C(=O)n1cnc(-c2cccnc2)c1)C1CCCCC1
concentration (Wistar rat, medulla oblongata; oral, 10 mg/kg/day of BIA 10-2474, 72 h, repeated 5 days): 7.2 ± 0.1 ng/g

CC(C)c1nc(N(C)S(C)(=O)=O)nc(-c2ccc(F)cc2)c1/C=C/[C@@H](O)C[C@@H](O)CC(=O)O
central volume of distribution (population pharmacokinetic model; people living with HIV; oral, dose not given): 153 L
